Results collected from several papers.
Parts stem from different laboratories: compare values within a part only. Changes are numbered by the printed parent chain.

Series 1
Target: Hepatocyte nuclear factor 3-beta, forkhead domain (FOXA2, Homo sapiens, UniProt Q9Y261, residues 142-269)
Technique: protein-binding microarray
Form: double-stranded DNA, one strand shown
Matrix: in vitro
Concentration: not given
Setting: k-mer, scored over probes, only values ≥0.25
Direction: higher = stronger binding
Endpoint: E-score
Construct (chain): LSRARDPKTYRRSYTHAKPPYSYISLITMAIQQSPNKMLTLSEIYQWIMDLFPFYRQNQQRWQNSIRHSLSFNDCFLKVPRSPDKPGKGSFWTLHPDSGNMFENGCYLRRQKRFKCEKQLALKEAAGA
AAGAGTAA: 0.261
ACCAATTA: 0.271
ATACACCA: 0.289
CTATTCTA: 0.289
GCAAACAC: 0.287
ATTATGAA: 0.251
ATAGTTAC: 0.299
AATGAGTA: 0.27

Series 2
Target: CRIPT, C-terminal peptide
Technique: DHFR complementation, deep sequencing
Matrix: yeast
Setting: single substitutions, model-inferred values
Baseline: wild type
Direction: higher = weaker binding
Endpoint: binding free energy change
Starting sequence: ERBIN, PDZ domain 1 (human); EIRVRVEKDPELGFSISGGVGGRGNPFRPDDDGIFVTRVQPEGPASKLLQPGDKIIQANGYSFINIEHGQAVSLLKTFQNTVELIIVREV; partner TKNYKQTSV
G21H: 0.163 kcal/mol
D32S: 0.109 kcal/mol
D31C: 0.309 kcal/mol
T81A: 0.0109 kcal/mol
E11F: -0.491 kcal/mol
L48Y: 0.0488 kcal/mol
F14E: 0.365 kcal/mol
S46C: 0.0318 kcal/mol

Mixed results
OGT: UDP-N-acetylglucosamine--peptide N-acetylglucosaminyltransferase 110 kDa subunit (OGT, Homo sapiens, UniProt O15294)
UniProt O15294, sequence (whole entry, looked up): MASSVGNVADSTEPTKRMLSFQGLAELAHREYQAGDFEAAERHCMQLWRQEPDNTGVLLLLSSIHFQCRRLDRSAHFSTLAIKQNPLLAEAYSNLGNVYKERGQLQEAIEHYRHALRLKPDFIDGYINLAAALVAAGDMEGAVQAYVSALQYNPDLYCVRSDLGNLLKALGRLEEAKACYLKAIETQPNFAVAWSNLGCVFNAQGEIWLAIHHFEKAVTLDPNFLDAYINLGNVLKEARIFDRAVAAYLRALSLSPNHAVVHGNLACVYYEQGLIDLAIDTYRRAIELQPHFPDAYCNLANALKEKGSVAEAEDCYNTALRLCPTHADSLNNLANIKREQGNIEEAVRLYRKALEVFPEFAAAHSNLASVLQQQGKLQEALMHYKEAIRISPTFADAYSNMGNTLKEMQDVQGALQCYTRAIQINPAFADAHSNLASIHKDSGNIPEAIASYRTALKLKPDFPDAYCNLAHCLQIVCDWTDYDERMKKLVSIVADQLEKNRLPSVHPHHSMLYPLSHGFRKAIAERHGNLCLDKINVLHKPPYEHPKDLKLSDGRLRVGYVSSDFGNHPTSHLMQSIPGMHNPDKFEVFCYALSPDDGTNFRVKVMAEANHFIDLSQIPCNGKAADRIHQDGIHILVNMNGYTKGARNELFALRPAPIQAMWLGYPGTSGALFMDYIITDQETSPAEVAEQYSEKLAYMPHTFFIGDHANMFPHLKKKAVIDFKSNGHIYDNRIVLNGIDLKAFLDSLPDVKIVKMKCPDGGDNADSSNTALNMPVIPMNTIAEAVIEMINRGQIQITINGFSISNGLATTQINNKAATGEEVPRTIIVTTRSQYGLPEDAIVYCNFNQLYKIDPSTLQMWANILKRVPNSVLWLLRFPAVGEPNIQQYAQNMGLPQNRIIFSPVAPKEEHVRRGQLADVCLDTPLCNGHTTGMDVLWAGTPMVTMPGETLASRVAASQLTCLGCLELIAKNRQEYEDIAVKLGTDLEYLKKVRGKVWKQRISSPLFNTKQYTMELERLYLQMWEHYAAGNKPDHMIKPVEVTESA
P1: PafA, mature enzyme, eGFP fusion (Elizabethkingia meningoseptica, UniProt Q9KJX5); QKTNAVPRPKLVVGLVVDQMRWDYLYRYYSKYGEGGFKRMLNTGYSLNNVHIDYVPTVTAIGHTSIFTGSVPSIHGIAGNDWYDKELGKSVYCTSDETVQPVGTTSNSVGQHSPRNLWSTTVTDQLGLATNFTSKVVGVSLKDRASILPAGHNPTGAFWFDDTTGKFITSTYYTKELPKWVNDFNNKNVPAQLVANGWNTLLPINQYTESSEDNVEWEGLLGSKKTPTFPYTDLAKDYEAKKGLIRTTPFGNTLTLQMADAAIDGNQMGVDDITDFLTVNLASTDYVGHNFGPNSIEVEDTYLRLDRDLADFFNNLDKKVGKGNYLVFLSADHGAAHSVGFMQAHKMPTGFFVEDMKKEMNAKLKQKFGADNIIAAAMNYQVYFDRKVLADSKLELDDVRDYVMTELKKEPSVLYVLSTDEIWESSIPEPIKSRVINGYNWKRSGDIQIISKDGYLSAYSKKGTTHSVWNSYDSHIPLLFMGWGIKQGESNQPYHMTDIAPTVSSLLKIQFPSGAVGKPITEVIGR
P1 E239G  oxyanion analog dissociation constant (tungstate, free oxyanion; microfluidic competitive inhibition; in vitro, cell-free expressed; not given, derived from inhibition constants, unchanged parent 2230 nM; lower = stronger binding): 1.72 µM
SFVVPRYQIIYKPFQ  enrichment fold change (OGT; binding, phage display NGS; peptide; concentration not given, panning round 2; baseline: input library): 5.56
P1 K442G  oxyanion analog dissociation constant (tungstate, free oxyanion; microfluidic competitive inhibition; in vitro, cell-free expressed; not given, derived from inhibition constants, unchanged parent 2230 nM; lower = stronger binding): 2.4 µM
DPRHHTHYPIHTMGY  enrichment fold change (OGT; binding, phage display NGS; peptide; concentration not given, panning round 2; baseline: input library): 6.3
DTFDEAFLAAVRSHQG  binding enrichment score (human cyclin B1; peptide binding, yeast competitive growth sequencing; peptide, Saccharomyces cerevisiae, cyclin B1-Cln2 fusion; concentration not given, peptide tiling library; direction not given): -0.00479
